Results pooled from the literature.
Lines come from different studies, so protocols differ. ± marks the error that the study gave.
CYP2B6: Cytochrome P450 2B6 (CYP2B6, Homo sapiens, UniProt P20813)
Chain of UniProt P20813 (whole entry, looked up): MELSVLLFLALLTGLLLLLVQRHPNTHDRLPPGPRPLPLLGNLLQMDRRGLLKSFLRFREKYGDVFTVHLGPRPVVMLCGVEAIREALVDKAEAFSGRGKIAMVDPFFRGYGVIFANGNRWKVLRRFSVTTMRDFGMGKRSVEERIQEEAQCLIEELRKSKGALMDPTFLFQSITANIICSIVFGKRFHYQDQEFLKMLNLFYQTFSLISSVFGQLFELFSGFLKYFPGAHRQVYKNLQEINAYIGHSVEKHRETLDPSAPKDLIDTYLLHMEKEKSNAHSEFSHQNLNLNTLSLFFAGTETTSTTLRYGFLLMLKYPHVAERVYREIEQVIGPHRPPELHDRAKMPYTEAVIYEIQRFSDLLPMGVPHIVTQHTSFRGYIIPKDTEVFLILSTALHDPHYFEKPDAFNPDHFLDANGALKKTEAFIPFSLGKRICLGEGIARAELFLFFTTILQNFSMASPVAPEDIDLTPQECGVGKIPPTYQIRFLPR
uncharacterized protein: uncharacterized protein (Streptococcus mutans serotype c, UniProt Q8DS94)
Chain of UniProt Q01959 (whole entry, unmodified, looked up): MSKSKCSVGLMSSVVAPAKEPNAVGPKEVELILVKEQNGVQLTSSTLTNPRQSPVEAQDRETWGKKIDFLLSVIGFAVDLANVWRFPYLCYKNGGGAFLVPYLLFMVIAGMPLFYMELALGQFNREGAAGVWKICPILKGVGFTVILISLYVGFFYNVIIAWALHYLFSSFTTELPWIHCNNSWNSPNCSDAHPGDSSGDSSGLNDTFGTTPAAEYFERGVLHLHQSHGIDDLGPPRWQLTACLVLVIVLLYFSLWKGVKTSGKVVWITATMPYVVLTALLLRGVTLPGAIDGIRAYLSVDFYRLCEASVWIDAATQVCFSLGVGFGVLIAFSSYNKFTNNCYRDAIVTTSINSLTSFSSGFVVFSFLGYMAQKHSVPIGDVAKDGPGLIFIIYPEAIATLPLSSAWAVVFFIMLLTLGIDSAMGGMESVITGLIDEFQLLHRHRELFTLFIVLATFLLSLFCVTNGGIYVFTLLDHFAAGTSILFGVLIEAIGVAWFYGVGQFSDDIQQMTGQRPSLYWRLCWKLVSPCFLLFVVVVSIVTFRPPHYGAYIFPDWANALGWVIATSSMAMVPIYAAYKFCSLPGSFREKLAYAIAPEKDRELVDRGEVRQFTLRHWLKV
Chain of UniProt P40337 (whole entry, looked up): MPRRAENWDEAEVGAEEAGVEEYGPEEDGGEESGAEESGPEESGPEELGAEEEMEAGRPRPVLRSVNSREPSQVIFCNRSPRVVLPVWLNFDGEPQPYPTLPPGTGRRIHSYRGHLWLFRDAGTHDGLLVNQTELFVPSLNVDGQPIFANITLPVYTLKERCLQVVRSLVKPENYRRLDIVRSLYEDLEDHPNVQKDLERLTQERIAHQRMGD
Chain of UniProt P00519 (whole entry, looked up): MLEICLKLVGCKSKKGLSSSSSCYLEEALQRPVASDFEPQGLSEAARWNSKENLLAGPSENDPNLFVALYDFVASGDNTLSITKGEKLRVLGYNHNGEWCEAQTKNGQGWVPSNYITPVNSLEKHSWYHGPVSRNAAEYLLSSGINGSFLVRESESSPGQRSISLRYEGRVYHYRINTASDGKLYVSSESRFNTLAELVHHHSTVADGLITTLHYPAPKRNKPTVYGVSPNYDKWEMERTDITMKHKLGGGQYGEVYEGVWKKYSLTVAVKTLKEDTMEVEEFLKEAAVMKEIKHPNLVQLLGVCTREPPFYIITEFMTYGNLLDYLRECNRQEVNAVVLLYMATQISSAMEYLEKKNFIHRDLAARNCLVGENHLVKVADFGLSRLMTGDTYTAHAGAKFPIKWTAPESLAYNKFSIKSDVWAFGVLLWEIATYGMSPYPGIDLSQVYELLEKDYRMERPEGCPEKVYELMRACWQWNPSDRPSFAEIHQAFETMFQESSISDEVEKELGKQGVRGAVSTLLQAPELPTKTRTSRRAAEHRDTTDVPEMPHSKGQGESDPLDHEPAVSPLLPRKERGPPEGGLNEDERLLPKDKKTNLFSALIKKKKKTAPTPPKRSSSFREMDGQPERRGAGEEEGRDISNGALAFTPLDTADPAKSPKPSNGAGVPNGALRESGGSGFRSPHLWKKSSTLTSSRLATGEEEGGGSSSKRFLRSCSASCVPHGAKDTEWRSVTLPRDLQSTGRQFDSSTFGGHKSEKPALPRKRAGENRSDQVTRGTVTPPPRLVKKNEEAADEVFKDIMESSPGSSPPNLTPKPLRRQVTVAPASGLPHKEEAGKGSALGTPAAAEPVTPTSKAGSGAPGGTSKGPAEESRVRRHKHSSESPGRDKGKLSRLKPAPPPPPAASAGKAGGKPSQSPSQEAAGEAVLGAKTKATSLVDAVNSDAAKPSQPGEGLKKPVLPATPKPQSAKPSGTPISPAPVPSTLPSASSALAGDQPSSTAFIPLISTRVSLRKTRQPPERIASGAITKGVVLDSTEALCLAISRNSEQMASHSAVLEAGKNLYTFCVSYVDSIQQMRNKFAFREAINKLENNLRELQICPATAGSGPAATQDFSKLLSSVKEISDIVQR

CC[C@H](C)[C@H](N)C(=O)N[C@H](C(=O)N[C@@H](CCCCN)C(=O)N[C@H](C(=O)N[C@H](C(=O)NCC(=O)N[C@@H](CC(=O)O)C(=O)N[C@@H](CC(C)C)C(=O)N[C@H](C(=O)N[C@@H](CCCCN)C(=O)N[C@@H](Cc1c[nH]c2ccccc12)C(=O)N[C@H](C(=O)N[C@H](C(=O)N[C@@H](CC(=O)O)C(=O)N[C@H](C(=O)N[C@H](C(=O)N[C@@H](CC(N)=O)C(=O)N[C@@H](CO)C(=O)N[C@@H](Cc1ccccc1)C(=O)N[C@H](C(=O)N[C@@H](CCCCN)C(=O)N[C@@H](CCCCN)C(=O)O)[C@@H](C)O)C(C)C)[C@@H](C)O)[C@@H](C)CC)[C@@H](C)CC)C(C)C)[C@@H](C)CC)[C@@H](C)O)[C@@H](C)CC
Kd (lipid vesicle binding; POPC vesicles; pH 7.5): 7.5 µM

CC(C)[C@H](N)C(=O)N[C@@H](Cc1ccc(O)cc1)C(=O)N[C@@H](CCCCN)C(=O)N[C@H](C(=O)N[C@@H](CCCCN)C(=O)N[C@H](C(=O)N[C@@H](CCCCN)C(=O)N[C@H](C(=O)N[C@@H](CCCCN)C(=O)N[C@H](C(=O)N[C@@H](CCCCN)C(=O)N[C@H](C(=O)N[C@@H](CCCCN)C(=O)N[C@H](C(=O)N[C@@H](CCCCN)C(=O)N[C@H](C(=O)N[C@@H](CCCCN)C(=O)N[C@H](C(=O)O)[C@@H](C)O)C(C)C)[C@@H](C)O)C(C)C)[C@@H](C)O)C(C)C)[C@@H](C)O)C(C)C
dissociation rate constant (binding, SPR Langmuir fit; rVλ6Wil fibrils; 300 nM, pH 7.4): 0.0034 s⁻¹

CCCCCc1cc(O)c2c(c1)OC(C)(C)C1CCC(C)=CC21 (single isomer, unassigned; (-))
Ki (CYP2B6; inhibitor; HEK293 overexpressing CYP2B6, recombinant microsomes; pH 7.4, total concentration, with: bupropion 12.5 to 100 µM): 5700 ± 1000 nM

CC[C@H](C)[C@H](NC(=O)[C@H](Cc1c[nH]c2ccccc12)NC(=O)[C@H](CCCCN)NC(=O)[C@@H](NC(=O)[C@H](CC(C)C)NC(=O)[C@H](CCCCN)NC(=O)CNC(=O)[C@@H](NC(=O)[C@@H](NC(=O)[C@H](CO)NC(=O)[C@@H](NC(=O)[C@@H](NC(=O)[C@H](CCCCN)NC(=O)[C@H](CCC(N)=O)NC(=O)[C@H](C)NC(=O)[C@H](CCSC)NC=O)[C@@H](C)CC)[C@@H](C)CC)[C@@H](C)O)[C@@H](C)CC)C(C)C)C(=O)N[C@H](C(=O)N[C@@H](CCCCN)C(=O)N[C@H](C(=O)N[C@H](C(=O)N[C@@H](CC(N)=O)C(=O)N[C@@H](CCCCN)C(=O)N[C@@H](Cc1ccccc1)C(=O)N[C@H](C(=O)N[C@@H](CCCCN)C(=O)N[C@@H](CCCCN)C(=O)O)[C@@H](C)O)C(C)C)[C@@H](C)O)[C@@H](C)CC (racemic)
Kd (membrane binding, stopped-flow FRET; POPC vesicles; pH 7.5, room temperature): 400 µM

OC[C@H]1[C@@H](O)[C@@H](O)CN1Cc1ccc(I)cc1
IC50 (Lysosomal alpha-mannosidase (Drosophila melanogaster, UniProt Q9VKV1); pH 5.2, with: 2 mM pNP-Man): 6.1 mM

CCC[C@H](C(=O)c1ccccc1)N1CCCC1
Ki (SLC6A3 (Homo sapiens, UniProt Q01959, F76Y); transporter uptake, inhibitor, radiometric): 2190 nM

CC(C)C[C@H](NC(=O)[C@H](CCCNC(=N)N)NC(=O)[C@H](Cc1ccccc1)NC(=O)[C@H](Cc1ccccc1)NC(=O)[C@@H](NC(=O)[C@H](CO)NC(=O)[C@@H](CC(C)C)NC(=O)[C@H](CO)NC(=O)CNC(=O)[C@@H](N)CO)[C@@H](C)O)C(=O)N[C@@H](Cc1ccccc1)C(=O)N[C@@H](CC(N)=O)C(=O)N[C@@H](CCCNC(=N)N)C(=O)N[C@@H](CO)C(=O)N[C@@H](Cc1ccccc1)C(=O)N[C@H](C(=O)N[C@@H](CCC(N)=O)C(=O)N[C@@H](C)C(=O)O)[C@@H](C)O
EC50 (uncharacterized protein; Streptococcus mutans): 4.5 nM

C[C@H](NC(=O)[C@H](CCC(N)=O)NC(=O)[C@H](CCCCN)NC(=O)[C@H](C)NC(=O)[C@@H]1CCCN1C(=O)[C@H](C)NC(=O)[C@H](CCCCN)NC(=O)[C@H](CCC(N)=O)NC(=O)[C@H](C)NC(=O)[C@H](CCCCN)NC(=O)[C@H](CCC(N)=O)NC(=O)[C@@H]1CCCN1C(=O)[C@H](CCC(N)=O)NC(=O)[C@H](CCCCN)NC(=O)[C@H](C)NC(=O)[C@H](CCC(N)=O)NC(=O)[C@H](CCCCN)NC(=O)[C@H](C)NC(=O)[C@@H]1CCCN1C(=O)[C@H](C)NC(=O)[C@H](CCCCN)NC(=O)[C@H](CCC(N)=O)NC(=O)[C@H](C)NC(=O)[C@H](CCCCN)NC(=O)[C@H](CO)NC(=O)[C@H](Cc1ccc(O)cc1)NC(=O)CNC(=O)CNC(=O)CN)C(=O)N[C@@H](CCCCN)C(=O)N[C@@H](CCC(N)=O)C(=O)O
dissociation rate constant (binding, SPR Langmuir fit; rVλ6Wil fibrils; 300 nM, pH 7.4): 0.0021 s⁻¹

COc1cc(-c2cnc3nc2NCCCNS(=O)(=O)c2cc(ccc2OC)N3)ccc1F
EC50 (ABL1 (Homo sapiens, UniProt P00519); target engagement in cells, BRET): > 50000 nM

C[C@@H](NC(=O)[C@@H](CCC(N)=O)NC(=O)[C@@H](C)NC(=O)[C@@H](CCCCN)NC(=O)[C@@H](CCC(N)=O)NC(=O)[C@@H](C)NC(=O)[C@@H](CCCCN)NC(=O)[C@@H](CCC(N)=O)NC(=O)[C@@H](C)NC(=O)[C@@H](CCC(N)=O)NC(=O)[C@@H](CCCCN)NC(=O)[C@@H](C)NC(=O)[C@@H](CCC(N)=O)NC(=O)[C@@H](CCCCN)NC(=O)[C@@H](C)NC(=O)[C@@H](CCC(N)=O)NC(=O)[C@@H](C)NC(=O)[C@@H](CCCCN)NC(=O)[C@@H](CCC(N)=O)NC(=O)[C@@H](C)NC(=O)[C@@H](CCCCN)NC(=O)[C@@H](CO)NC(=O)[C@@H](Cc1ccc(O)cc1)NC(=O)CNC(=O)CNC(=O)CN)C(=O)N[C@H](CCCCN)C(=O)N[C@H](CCC(N)=O)C(=O)N[C@H](C)C(=O)N[C@H](CCCCN)C(=O)N[C@H](CCC(N)=O)C(=O)O
dissociation rate constant (binding, SPR Langmuir fit; rVλ6Wil fibrils; 300 nM, pH 7.4): 0.0019 s⁻¹

CC1=CC(C)=[N+]2C1=Cc1ccc(CCC(=O)NCCOCCOCCOCCOCC(=O)N[C@H](C(=O)N3C[C@H](O)C[C@H]3C(=O)NCc3ccc(-c4scnc4C)cc3)C(C)(C)C)n1[B-]2(F)F
Kd (von Hippel-Lindau disease tumor suppressor, with elongin B/C (VHL, Homo sapiens, UniProt P40337); binding, TR-FRET; 120 min, with: BODIPY FL VH032): 0.00304 µM

CCCCCc1cc(O)c2c(c1)OC(C)(C)C1CCC(CO)=CC21 (centres unmarked)
Ki (CYP2B6; enzyme activity, inhibitor; microsomes from HEK293 cells; pH 7.4, unbound, fu,inc corrected, with: bupropion): 86 ± 66 nM

NCCCC[C@H](NC(=O)CNC(=O)CNC(=O)[C@H](CCCCN)NC(=O)CNC(=O)CNC(=O)CNC(=O)[C@H](CCCCN)NC(=O)CNC(=O)CNC(=O)[C@H](CCCCN)NC(=O)CNC(=O)CNC(=O)CNC(=O)[C@H](CCCCN)NC(=O)CNC(=O)CNC(=O)[C@H](CCCCN)NC(=O)CNC(=O)CNC(=O)CNC(=O)[C@H](CCCCN)NC(=O)CNC(=O)CNC(=O)[C@H](CCCCN)NC(=O)[C@H](CO)NC(=O)[C@H](Cc1ccc(O)cc1)NC(=O)CNC(=O)CNC(=O)CN)C(=O)NCC(=O)O
Kd (binding, SPR Langmuir fit; rVλ6Wil fibrils; pH 7.4): 0.018 µM

CC(C)C[C@H](NC(=O)[C@H](CCCNC(=N)N)NC(=O)[C@H](Cc1ccccc1)NC(=O)[C@H](Cc1ccccc1)NC(=O)[C@@H](NC(=O)[C@H](CO)NC(=O)[C@H](CC(C)C)NC(=O)[C@@H](N)CO)[C@@H](C)O)C(=O)N[C@@H](Cc1ccccc1)C(=O)N[C@@H](CC(N)=O)C(=O)N[C@@H](CCCNC(=N)N)C(=O)N[C@@H](CO)C(=O)N[C@@H](Cc1ccccc1)C(=O)N[C@H](C(=O)N[C@@H](CCC(N)=O)C(=O)N[C@@H](C)C(=O)O)[C@@H](C)O
EC50 (uncharacterized protein; Streptococcus mutans): 7.9 nM

Excerpt of the above:
C[C@@H](NC(=O)[C@@H](CCC(N)=O)NC(=O)[C@@H](C)NC(=O)[C@@H](CCCCN)NC(=O)[C@@H](CCC(N)=O)NC(=O)[C@@H](C)NC(=O)[C@@H](CCCCN)NC(=O)[C@@H](CCC(N)=O)NC(=O)[C@@H](C)NC(=O)[C@@H](CCC(N)=O)NC(=O)[C@@H](CCCCN)NC(=O)[C@@H](C)NC(=O)[C@@H](CCC(N)=O)NC(=O)[C@@H](CCCCN)NC(=O)[C@@H](C)NC(=O)[C@@H](CCC(N)=O)NC(=O)[C@@H](C)NC(=O)[C@@H](CCCCN)NC(=O)[C@@H](CCC(N)=O)NC(=O)[C@@H](C)NC(=O)[C@@H](CCCCN)NC(=O)[C@@H](CO)NC(=O)[C@@H](Cc1ccc(O)cc1)NC(=O)CNC(=O)CNC(=O)CN)C(=O)N[C@H](CCCCN)C(=O)N[C@H](CCC(N)=O)C(=O)N[C@H](C)C(=O)N[C@H](CCCCN)C(=O)N[C@H](CCC(N)=O)C(=O)O
dissociation rate constant (binding, SPR Langmuir fit; rVλ6Wil fibrils; 300 nM, pH 7.4): 0.0019 s⁻¹
